Published values from different studies.
Each line is one published result; not all experiments were run side by side.

For `C/C(N)=N/C(=N\S(=O)(=O)c1ccc(C(F)(F)F)cc1)N1C[C@H](c2ccccc2)C(c2ccc(Cl)cc2)=N1`, the half-life was 2.8 h (male C57BL/6 mouse, heart; intravenous, 10 mg/kg).
With `CN(C)C(=O)c1cccc(N2Cc3cn(Cc4cc(Cl)cc(Cl)c4)nc3C2)c1` the half-life was 0.5 h (metabolic stability; human, liver microsomes).
For `Cc1c(Cc2ccc(Cl)c(OC(C)C(=O)O)c2)c2ccc(C(=O)NC(C)c3ccc(C(C)(C)C)cc3)cc2n1CC1CCC1` (stereo not drawn), the half-life was over 1 h (metabolic stability; human, liver microsomes).
For `COc1cc2ncnc(Oc3ccc(Nc4nccc5[nH]cc(-c6ccc(F)cc6)c(=O)c45)cc3F)c2cc1OC`, the half-life was 13.1 h (male cynomolgus monkey, plasma; intravenous, 1.5 mg/kg).
`O=C(c1ccnc(N2Cc3cn(Cc4ccc(F)cc4)nc3C2)n1)N1CCOCC1` gave a half-life of 5.47 h (metabolic stability; human, liver microsomes).
`COC1CN([C@H]2CC[C@H]([C@@]3(C)Oc4c(Cl)cc(C(=O)NCc5c(SC)cc(C)[nH]c5=O)c(C)c4O3)CC2)C1` has a half-life of 1 h (female CB17 SCID mice, KARPAS-422 xenograft, plasma; 25 mg/kg, day 1).
For `Cc1c(Cc2cccc(OC(C)(C)C(=O)O)c2)c2ccc(C(=O)N[C@@H](C)c3cccc(C(C)(C)C)c3)cc2n1CC1CCC1`, the half-life was 0.933 h (metabolic stability; human, liver microsomes).
With `C=C(NC(=O)c1csc(-c2nc3c(cc2O)-c2nc(cs2)C(=O)NC(C(C)O)C(=O)NC(=C(C)OC)c2nc(cs2)C(=O)NC2c4nc(cs4)C(=O)NC(COC(=O)c4c5c6c(cccc6n4O)COC(=O)C(OC4CC(C)(O)C(N(C)C)C(C)O4)C2OC5)c2nc-3cs2)n1)C(N)=O` (stereo not drawn) the half-life was 3.69 h (female cynomolgus monkey, plasma; intravenous, 1 mg/kg, single dose, infusion).
For `CN(C)C(=O)c1cccc(N2Cc3cn(Cc4ccc(F)cc4Cl)nc3C2)c1`, the half-life was 0.6 h (metabolic stability; human, liver microsomes).
The half-life of `Cc1c(Cc2cccc(OC(C)(C)C(=O)O)c2)c2ccc(C(=O)NCc3cccc(C(C)(C)C)c3)cc2n1CC1CCC1` is reported as 0.367 h (metabolic stability; human, liver microsomes).
The half-life of `CN(C)C(=O)c1ccnc(N2Cc3cn(Cc4ccc(F)cc4)nc3C2)n1` is reported as 12.5 h (metabolic stability; human, liver microsomes).
`Cc1c(Cc2cc(F)cc(OC(C)(C)C(=O)O)c2)c2ccc(C(=O)N[C@@H](C)c3ccc(C(C)(C)C)cc3)cc2n1CC1CCC1` has a half-life of over 1 h (metabolic stability; human, liver microsomes).
